Results collected from several papers.
Lines come from different studies, so protocols differ. ± gives the spread as reported.

`CNC(=O)c1cc(Cl)c(OC(C)(C)C(=O)O)cc1OC[C@@H](O)CN1CCC2(CC1)Cc1cc(Cl)ccc1O2` gave a clearance of 25 mL/min/kg (human).
For `CN(C)CCCNC(=O)/C(=C/CCCCC(=O)NO)COc1cccc2ccccc12`, the clearance was 118 mL/min (human; iv, 312.5 mg/m2, day 1, single dose, mean).
`Cc1ccc([C@@H]2O[C@H](CO)[C@@H](O)[C@H](O)[C@H]2O)cc1Cc1ccc(-c2ccc(F)cc2)s1` has a clearance of 180 mL/min (human, maintenance hemodialysis patients; oral, 100 mg once daily, steady state, median).
With `NC(=O)c1cnc2[nH]ccc2c1N[C@@H]1[C@@H]2CC3C[C@H]1C[C@@](O)(C3)C2` the clearance was 1390 mL/min (human, plasma; oral).
`CC(=O)O[C@H]1C(=O)[C@@]2(C)[C@H]([C@H](OC(=O)c3ccccc3)[C@]3(O)C[C@H](OC(=O)[C@H](O)[C@@H](NC(=O)c4ccccc4)c4ccccc4)C(C)=C1C3(C)C)[C@]1(OC(C)=O)CO[C@@H]1C[C@@H]2O` has a clearance of 292 mL/min (human, plasma; intravenous infusion, 60 mg/m^2, cycle 1 day 15, with oral co-drug daily).
`Cc1cn(-c2cc(NC(=O)c3ccc(C)c(Nc4nccc(-c5cccnc5)n4)c3)cc(C(F)(F)F)c2)cn1` gave a clearance of 572 mL/min (population PK model; human, plasma; oral, fasted, typical value).
The clearance of `NS(=O)(=O)OC[C@@H]1C[C@@H](n2ccc3c(N[C@H]4CCc5ccccc54)ncnc32)C[C@@H]1O` is reported as 18 L/h/m² (human patients sample A years or younger, plasma; median, BSA-adjusted).
The clearance of `O=C(/C=C/c1cccc(S(=O)(=O)Nc2ccccc2)c1)NO` is reported as 23.2 L/h/m² (human patients, plasma; 2000 mg/m^2).
`OCc1cc(C(O)CNCCCCCCOCCCCc2ccccc2)ccc1O` (centres unmarked) gave a clearance of 9.17 mL/min/kg (human).
For `Cn1cnc2c(F)c(Nc3ccc(Br)cc3Cl)c(C(=O)NOCCO)cc21`, the clearance was 210 mL/min (nonlinear absorption model; human, plasma; oral).
For `CN[C@@H](C)C(=O)N[C@H]1CN(S(=O)(=O)c2cccc(S(=O)(=O)N3CC[C@H]4CC[C@@H](C(=O)NC(c5ccccc5)c5ccccc5)N4C(=O)[C@@H](NC(=O)[C@H](C)NC)C3)c2)CC[C@H]2CC[C@@H](C(=O)NC(c3ccccc3)c3ccccc3)N2C1=O`, the clearance was 1980 mL/min (LC-MS/MS, noncompartmental; human, plasma; 20 mg, cycle 1 day 1).
With `CC(C)c1ncc(C(=O)N2CCOC3(CCN(Cc4ccc(F)c(CCNC[C@H](O)c5ccc(O)c6[nH]c(=O)sc56)c4)CC3)C2)s1` the clearance was 21.7 mL/min/kg (human).
For `CN(C)N=Nc1[nH]cnc1C(N)=O`, the clearance was 6.74 L/h/m² (human patients, plasma; intravenous, 1000 mg/m^2 over 1 h, cycle 2 day 1, co-administered with another drug).
The clearance of `Nc1ccn([C@@H]2O[C@H](CO)[C@@H](O)C2(F)F)c(=O)n1` is reported as 59.7 L/h/m² (HPLC-UV; human, plasma; 800 mg/m^2, mean, before paricalcitol).
For `CC(=O)O[C@H]1C(=O)[C@@]2(C)[C@H]([C@H](OC(=O)c3ccccc3)[C@]3(O)C[C@H](OC(=O)[C@H](O)[C@@H](NC(=O)c4ccccc4)c4ccccc4)C(C)=C1C3(C)C)[C@]1(OC(C)=O)CO[C@@H]1C[C@@H]2O`, the clearance was 432 ± 142 mL/min (human; intravenous, dose not given).
`NC(=O)N1c2ccccc2CC(O)c2ccccc21` (centres unmarked) gave a clearance of 51.5 mL/min (population PK modelling; human patients, plasma; weight-scaled volume and clearance).
With `COC[C@@H](c1ccc(C(F)(F)F)cc1)N1CCN(C2(C)CCN(C(=O)c3c(C)ncnc3C)CC2)C[C@@H]1C` the clearance was 58.3 mL/min (human; population PK model, with: ritonavir).

Excerpt of the above:
The clearance of `Nc1ccn([C@@H]2O[C@H](CO)[C@@H](O)C2(F)F)c(=O)n1` is reported as 59.7 L/h/m² (HPLC-UV; human, plasma; 800 mg/m^2, mean, before paricalcitol).
For `CC(=O)O[C@H]1C(=O)[C@@]2(C)[C@H]([C@H](OC(=O)c3ccccc3)[C@]3(O)C[C@H](OC(=O)[C@H](O)[C@@H](NC(=O)c4ccccc4)c4ccccc4)C(C)=C1C3(C)C)[C@]1(OC(C)=O)CO[C@@H]1C[C@@H]2O`, the clearance was 432 ± 142 mL/min (human; intravenous, dose not given).
